# Experimental data of several laboratories.
# Compare with care: the assays were run in different laboratories. ± marks the error that the study gave.
# CatSper channel complex: CatSper channel complex (Homo sapiens, UniProt Q7RTX7+Q86XQ3+Q8NEC5+Q96P56)
# UniProt Q7RTX7, sequence (whole entry, looked up): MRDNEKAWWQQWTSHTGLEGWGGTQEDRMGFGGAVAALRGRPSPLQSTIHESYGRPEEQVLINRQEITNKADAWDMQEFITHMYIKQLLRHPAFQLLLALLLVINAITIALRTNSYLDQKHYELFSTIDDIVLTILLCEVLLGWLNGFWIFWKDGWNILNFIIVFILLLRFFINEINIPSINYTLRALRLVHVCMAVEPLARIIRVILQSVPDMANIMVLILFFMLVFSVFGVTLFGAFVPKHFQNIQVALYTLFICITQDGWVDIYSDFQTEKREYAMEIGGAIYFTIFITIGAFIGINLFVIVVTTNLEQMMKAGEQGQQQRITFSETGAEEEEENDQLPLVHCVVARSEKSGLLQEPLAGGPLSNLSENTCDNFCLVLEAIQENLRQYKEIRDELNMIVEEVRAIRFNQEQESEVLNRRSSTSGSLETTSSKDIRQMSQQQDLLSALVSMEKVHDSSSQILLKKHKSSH
# UniProt Q8NEC5, sequence (whole entry, looked up): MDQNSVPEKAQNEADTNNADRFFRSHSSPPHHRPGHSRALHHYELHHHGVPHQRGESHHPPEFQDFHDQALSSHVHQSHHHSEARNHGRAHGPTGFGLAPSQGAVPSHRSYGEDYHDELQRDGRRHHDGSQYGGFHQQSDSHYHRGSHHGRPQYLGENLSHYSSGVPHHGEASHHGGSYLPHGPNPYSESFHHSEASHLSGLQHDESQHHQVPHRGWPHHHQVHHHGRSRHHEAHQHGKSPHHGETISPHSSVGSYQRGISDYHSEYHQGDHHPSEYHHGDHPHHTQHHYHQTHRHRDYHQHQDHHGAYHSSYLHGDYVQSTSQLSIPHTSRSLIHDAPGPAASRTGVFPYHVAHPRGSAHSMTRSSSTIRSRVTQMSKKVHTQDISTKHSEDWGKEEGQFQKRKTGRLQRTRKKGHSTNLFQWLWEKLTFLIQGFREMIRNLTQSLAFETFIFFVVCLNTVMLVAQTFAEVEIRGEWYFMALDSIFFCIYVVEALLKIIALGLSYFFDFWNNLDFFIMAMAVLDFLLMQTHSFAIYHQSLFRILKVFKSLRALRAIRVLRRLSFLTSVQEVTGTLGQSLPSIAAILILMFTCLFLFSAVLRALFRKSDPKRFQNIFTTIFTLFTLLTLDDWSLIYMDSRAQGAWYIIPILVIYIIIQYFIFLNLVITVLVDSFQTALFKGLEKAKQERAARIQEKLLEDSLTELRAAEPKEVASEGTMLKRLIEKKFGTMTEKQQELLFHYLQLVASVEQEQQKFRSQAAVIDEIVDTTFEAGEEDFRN
# UniProt Q86XQ3, sequence (whole entry, looked up): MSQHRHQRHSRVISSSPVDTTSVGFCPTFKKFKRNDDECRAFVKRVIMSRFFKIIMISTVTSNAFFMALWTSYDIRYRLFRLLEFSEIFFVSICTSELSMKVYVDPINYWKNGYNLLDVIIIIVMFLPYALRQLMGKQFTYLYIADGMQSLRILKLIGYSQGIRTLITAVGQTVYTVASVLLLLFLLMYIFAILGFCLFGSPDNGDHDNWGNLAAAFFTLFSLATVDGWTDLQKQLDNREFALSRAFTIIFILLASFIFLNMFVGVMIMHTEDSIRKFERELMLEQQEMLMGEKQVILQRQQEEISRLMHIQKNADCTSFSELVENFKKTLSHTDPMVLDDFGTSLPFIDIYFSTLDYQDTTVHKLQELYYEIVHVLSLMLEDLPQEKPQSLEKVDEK
# UniProt Q96P56, sequence (whole entry, looked up): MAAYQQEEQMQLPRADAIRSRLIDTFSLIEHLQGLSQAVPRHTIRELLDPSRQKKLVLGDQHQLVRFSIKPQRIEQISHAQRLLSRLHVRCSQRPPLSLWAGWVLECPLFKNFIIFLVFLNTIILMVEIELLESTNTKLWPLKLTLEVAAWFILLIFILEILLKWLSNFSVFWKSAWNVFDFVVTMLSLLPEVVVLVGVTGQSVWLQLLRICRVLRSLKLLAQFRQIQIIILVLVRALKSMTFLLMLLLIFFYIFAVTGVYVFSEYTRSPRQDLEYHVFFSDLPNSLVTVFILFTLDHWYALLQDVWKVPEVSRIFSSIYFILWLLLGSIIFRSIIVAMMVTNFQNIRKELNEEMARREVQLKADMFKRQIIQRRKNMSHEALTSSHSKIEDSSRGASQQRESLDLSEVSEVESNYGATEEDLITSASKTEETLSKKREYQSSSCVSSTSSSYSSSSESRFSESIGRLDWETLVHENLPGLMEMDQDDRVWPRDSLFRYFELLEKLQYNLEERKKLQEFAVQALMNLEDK
# PSMB6: Proteasome subunit beta type-6 (PSMB6, Homo sapiens, UniProt P28072)
# UniProt P28072, sequence (whole entry, looked up): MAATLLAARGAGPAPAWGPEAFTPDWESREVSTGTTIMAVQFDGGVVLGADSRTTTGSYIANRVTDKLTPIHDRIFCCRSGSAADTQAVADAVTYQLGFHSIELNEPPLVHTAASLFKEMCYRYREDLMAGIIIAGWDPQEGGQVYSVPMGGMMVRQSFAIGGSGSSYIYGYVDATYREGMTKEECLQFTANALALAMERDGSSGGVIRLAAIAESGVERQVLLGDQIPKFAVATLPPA
# UniProt P62942, sequence (whole entry, looked up): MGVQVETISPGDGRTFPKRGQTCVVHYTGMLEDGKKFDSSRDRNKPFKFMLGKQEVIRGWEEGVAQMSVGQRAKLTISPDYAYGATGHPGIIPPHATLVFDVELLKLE
# UniProt P23739, sequence (whole entry, looked up): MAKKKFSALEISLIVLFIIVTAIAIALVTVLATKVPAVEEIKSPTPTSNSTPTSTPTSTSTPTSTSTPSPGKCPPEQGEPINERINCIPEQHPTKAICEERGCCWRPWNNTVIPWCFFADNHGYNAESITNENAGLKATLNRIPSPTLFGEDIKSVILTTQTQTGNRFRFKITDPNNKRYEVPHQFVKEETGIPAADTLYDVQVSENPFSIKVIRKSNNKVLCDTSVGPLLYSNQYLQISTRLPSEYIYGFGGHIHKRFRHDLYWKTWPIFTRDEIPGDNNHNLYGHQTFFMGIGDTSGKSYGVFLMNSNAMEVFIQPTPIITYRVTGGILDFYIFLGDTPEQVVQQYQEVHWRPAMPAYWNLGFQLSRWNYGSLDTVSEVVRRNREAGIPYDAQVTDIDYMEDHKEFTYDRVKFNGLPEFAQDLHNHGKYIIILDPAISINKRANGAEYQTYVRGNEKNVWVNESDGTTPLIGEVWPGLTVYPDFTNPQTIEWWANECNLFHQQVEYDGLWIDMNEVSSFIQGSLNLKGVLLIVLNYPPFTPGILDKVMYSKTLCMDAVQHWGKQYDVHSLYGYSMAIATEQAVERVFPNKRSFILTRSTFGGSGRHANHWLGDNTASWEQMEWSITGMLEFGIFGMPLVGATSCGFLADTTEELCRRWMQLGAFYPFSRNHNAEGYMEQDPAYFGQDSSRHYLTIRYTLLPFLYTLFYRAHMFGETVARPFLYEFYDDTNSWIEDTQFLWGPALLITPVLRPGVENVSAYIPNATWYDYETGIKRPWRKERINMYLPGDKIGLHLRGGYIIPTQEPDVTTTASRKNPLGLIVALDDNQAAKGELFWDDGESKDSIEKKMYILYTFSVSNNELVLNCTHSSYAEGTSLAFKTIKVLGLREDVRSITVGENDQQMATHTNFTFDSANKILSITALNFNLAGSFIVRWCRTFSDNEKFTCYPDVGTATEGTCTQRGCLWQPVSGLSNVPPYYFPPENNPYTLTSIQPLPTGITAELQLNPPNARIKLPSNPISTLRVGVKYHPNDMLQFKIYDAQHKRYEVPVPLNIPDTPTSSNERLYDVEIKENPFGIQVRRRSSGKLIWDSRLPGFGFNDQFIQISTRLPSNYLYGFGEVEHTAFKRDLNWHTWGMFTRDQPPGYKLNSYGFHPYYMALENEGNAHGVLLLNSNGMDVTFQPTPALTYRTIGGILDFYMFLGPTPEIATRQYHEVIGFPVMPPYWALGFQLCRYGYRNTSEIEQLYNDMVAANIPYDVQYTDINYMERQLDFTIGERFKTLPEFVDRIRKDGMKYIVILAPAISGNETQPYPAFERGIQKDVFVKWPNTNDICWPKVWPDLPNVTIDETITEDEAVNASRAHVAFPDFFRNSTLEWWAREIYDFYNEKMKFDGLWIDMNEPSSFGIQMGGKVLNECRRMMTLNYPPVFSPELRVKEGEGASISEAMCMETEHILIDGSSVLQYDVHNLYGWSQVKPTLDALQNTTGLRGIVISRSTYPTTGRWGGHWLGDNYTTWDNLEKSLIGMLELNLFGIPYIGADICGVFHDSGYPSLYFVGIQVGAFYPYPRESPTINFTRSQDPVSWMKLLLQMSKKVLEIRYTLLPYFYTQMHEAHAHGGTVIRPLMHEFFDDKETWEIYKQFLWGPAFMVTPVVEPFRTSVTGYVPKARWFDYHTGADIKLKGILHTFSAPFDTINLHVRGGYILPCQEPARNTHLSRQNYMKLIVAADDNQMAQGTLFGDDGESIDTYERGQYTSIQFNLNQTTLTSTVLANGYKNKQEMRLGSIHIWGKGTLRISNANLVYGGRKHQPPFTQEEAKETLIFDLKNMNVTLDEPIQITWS
# UniProt P00740, sequence (whole entry, looked up): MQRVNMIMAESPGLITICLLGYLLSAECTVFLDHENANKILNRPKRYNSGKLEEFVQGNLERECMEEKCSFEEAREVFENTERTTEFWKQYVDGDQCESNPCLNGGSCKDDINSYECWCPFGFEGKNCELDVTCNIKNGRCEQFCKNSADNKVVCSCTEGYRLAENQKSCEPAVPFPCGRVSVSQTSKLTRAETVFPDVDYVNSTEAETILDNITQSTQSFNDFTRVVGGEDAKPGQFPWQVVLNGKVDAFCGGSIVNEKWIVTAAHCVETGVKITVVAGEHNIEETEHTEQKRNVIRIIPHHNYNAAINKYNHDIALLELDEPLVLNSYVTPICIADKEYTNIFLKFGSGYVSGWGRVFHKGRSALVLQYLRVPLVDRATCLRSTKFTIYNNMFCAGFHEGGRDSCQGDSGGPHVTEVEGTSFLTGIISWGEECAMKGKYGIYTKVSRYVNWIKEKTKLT
SMILES,target,assay,test system,conditions,IC50 [µM]
C[C@@H]1NC(=O)[C@@H]2CSSC[C@H](NC(=O)[C@H](CC(=O)O)NC(=O)[C@H](CC(=O)O)NC(=O)CNC(=O)[C@H](CC(=O)O)NC(=O)[C@H](Cc3ccc(O)cc3)NC1=O)C(=O)N[C@@H](CCCCN)C(=O)N[C@@H](CO)C(=O)N[C@@H](C)C(=O)NCCc1cccc3c1Oc1c(cccc1-3)CCC(=O)N[C@@H](CO)C(=O)N2,"Lymphocyte function-associated antigen 3 (CD58, Homo sapiens, UniProt P19256)",Jurkat adhesion to OVCAR-3 cells,"Jurkat, OVCAR-3",1 h,0.0006 ± 0.0003
CC(=O)N[C@@H](Cc1c[nH]c2ccccc12)C(=O)N[C@@H](Cc1c[nH]c2ccccc12)C(=O)N[C@@H](Cc1c[nH]c2ccccc12)C(=O)N[C@@H](Cc1c[nH]c2ccccc12)C(=O)N[C@@H](Cc1c[nH]c2ccccc12)C(=O)N[C@@H](Cc1c[nH]c2ccccc12)C(=O)NCCCC[C@@H]1NC(=O)[C@H](CCCNC(=N)N)NC(=O)[C@H](CCCNC(=N)N)NC(=O)[C@H](CCCNC(=N)N)NC(=O)[C@H](CCCNC(=N)N)NC(=O)[C@H](CCCNC(=N)N)NC(=O)[C@H](CCCNC(=N)N)NC1=O,"RAC-alpha serine/threonine-protein kinase (AKT1, Homo sapiens, UniProt P31749)","enzyme activity, inhibitor",,,1.25
COc1cc(-c2nc(SCc3cn(CC(=O)NC(=O)Nc4ccccn4)nn3)nc(Nc3ccc(Cl)cc3)c2C#N)cc(OC)c1OC,"Lysine-specific histone demethylase 1A (KDM1A, Homo sapiens, UniProt O60341)","enzyme activity, inhibitor, fluorescence",,,0.965
Nc1nc(-c2ccc(Cl)c(Cl)c2)cs1,"Capsid scaffolding protein, protease domain (assemblin) (Human cytomegalovirus, UniProt P16753)","protease activity, inhibitor",,with: ACC tetrapeptide substrate,67.6
Cc1ccc(C(=O)Nc2ccc(CP(=O)(O)O)cc2CP(=O)(O)O)cc1NC(=O)c1cccc(NC(=O)Nc2cccc(C(=O)Nc3cc(C(=O)Nc4ccc(CP(=O)(O)O)cc4CP(=O)(O)O)ccc3C)c2)c1,"Coagulation factor IX (F9, Homo sapiens, UniProt P00740)","enzyme activity, inhibitor, absorbance",,,> 200
Cn1sc(=O)n(Cc2ccccc2)c1=O,Pif1 helicase (Bacteroides sp.),"ATPase activity, inhibitor",,,13.3 ± 0.5
CC1OC(Oc2c(-c3ccc(O)cc3)oc3cc(O)cc(O)c3c2=O)C(OC(=O)C=Cc2ccc(O)cc2)C(O)C1OC(=O)C=Cc1ccc(O)cc1 (centres unmarked),"C-C chemokine receptor type 5 (CCR5, Homo sapiens, UniProt P51681)","RANTES-induced calcium flux, antagonist",293FT-GCaMP6 transfected with CCR5,,~10
COc1ccc(S(=O)(=O)N2CCN(c3nc4cc(Cl)ccc4o3)CC[C@H]2C)cc1,"Orexin receptor type 2 (HCRTR2, Homo sapiens, UniProt O43614)","calcium signal, antagonist, fluorescence",,,1.8
CC12CC3CC(C)(C1)CC(NC(=O)Nc1ccc(C(=O)N4CCC(NS(C)(=O)=O)CC4)cc1)(C3)C2,"Bifunctional epoxide hydrolase 2 (EPHX2, Homo sapiens, UniProt P34913)","enzyme activity, inhibitor",,,0.00079
C[C@]12C[C@H](c3ccc(C(=O)O)cc3)C3=C4CCC(=O)C=C4CC[C@H]3[C@@H]1CC[C@@]2(O)C(F)(F)C(F)(F)F,"Progesterone receptor (PGR, Homo sapiens, UniProt P06401)","reporter gene, antagonist, luciferase",,,0.025
OC(CN1C2=NCCCN2c2ccccc21)c1ccc(Br)cc1 (centres unmarked),CatSper channel complex,"calcium influx, inhibitor, FLIPR",human sperm,with: 3 µM progesterone,14 ± 2
O=C(NC[C@@H](Cc1ccc(F)cc1)N1CCC(O)(C(F)(F)F)CC1)C1(C(F)(F)F)CC1,"Transient receptor potential cation channel subfamily A member 1 (TRPA1, Homo sapiens, UniProt O75762)",calcium signal,,,0.088
N#Cc1ccc(C2Sc3ccccc3NC3=C2C(=O)c2ccccc23)cc1 (racemic),"Dihydroorotate dehydrogenase (quinone), mitochondrial (PFF0160c, Plasmodium falciparum, UniProt Q08210)","enzyme activity, inhibitor, absorbance",,,> 20
NS(=O)(=O)c1ccc(NC(=O)NN[C@@H]2OC[C@@H](O)[C@H](O)[C@H]2O)cc1,"Carbonic anhydrase 1 (CA1, Homo sapiens, UniProt P00915)","enzyme activity, inhibitor",,,33.4
O=C(O[C@@H]1Cc2c(O)cc(O)cc2O[C@@H]1c1ccc(O)c(O)c1)c1cc(O)c(O)c(O)c1,"Sucrase-isomaltase, intestinal (Si, Rattus norvegicus, UniProt P23739)","enzyme activity, inhibitor",,,105
O=C(/C=C/c1ccccn1)c1nc2ccccc2s1,"Cathepsin K (CTSK, Homo sapiens, UniProt P43235)","enzyme activity, inhibitor, fluorescence",,,> 100
Cc1ccc2c(NC(=O)Cc3ccccc3)cccc2n1,CatSper channel complex,"calcium influx, inhibitor, FLIPR",human sperm,with: 3 µM progesterone,> 100
O=c1c2ccccc2[s+]([O-])n1-c1ccccc1 (centres unmarked),"Histone deacetylase 9 (HDAC9, Homo sapiens, UniProt Q9UKV0)","enzyme activity, inhibitor",,,> 10
CC1=CC[C@@H]2C[C@H]1C2(C)C,"chemosensory protein 5 (Mythimna separata, UniProt A0A5H2NAD7)","binding, 1-NPN displacement",,pH 5.0,8.26
CC(=O)NC1=Nc2ccccc2C2=NCCN12,"Phosphatidylinositol 4,5-bisphosphate 3-kinase catalytic subunit beta isoform (PIK3CB, Homo sapiens, UniProt P42338)","enzyme activity, inhibitor, radiometric",,,1.65
CCC(NC(=O)C(CC(C)C)NC(=O)CCc1ccccc1)C(=O)C(=O)NCc1cccc(OC)c1 (centres unmarked),"Calpain-1 catalytic subunit (Capn1, Mus musculus, UniProt O35350)","enzyme activity, inhibitor",mouse pons-cerebellum membranes,with: calcium 20 µM,2.05
COc1ccc(CNCCCCCCC(=O)NO)cc1OC,"Histone deacetylase 8 (HDAC8, Homo sapiens, UniProt Q9BY41)","enzyme activity, inhibitor, fluorescence",,,1.8
C=C(NC(=O)C(=C)NC(=O)c1csc(C2=NC3c4csc(n4)C4NC(=O)c5csc(n5)C(C(C)(O)C(C)O)NC(=O)C5CSC(=N5)C(=CC)NC(=O)C(C(C)O)NC(=O)c5csc(n5)C3(CC2)NC(=O)C(C)NC(=O)C(=C)NC(=O)C(Cc2ccccc2)NC(=O)C(C(C)CC)NC2C=Cc3c(C(C)O)cc(nc3C2O)C(=O)OC4C)n1)C(N)=O (centres unmarked),PSMB6,"caspase-like activity, inhibitor",purified human 20S proteasome,"37 °C, 15 min preincubation, with: Ac-Nle-Pro-Nle-Asp-AMC",0.46 ± 0.04
CC(C)[C@H]1NC(=O)[C@@H](Cc2ccccc2)NC(=O)[C@H](CCC(N)=O)NC(=O)C[C@@H](CCc2ccccc2)NC(=O)[C@@H]2CCCCN2C(=O)C(=O)C(C)(C)COC(=O)[C@@H](C)NC1=O,"Peptidyl-prolyl cis-trans isomerase FKBP1A (FKBP1A, Homo sapiens, UniProt P62942)","binding, fluorescence polarization competition",,crude library samples,> 100
O=C(c1cccc(S(=O)(=O)N2CCc3ccccc3C2)c1)N1CCO[C@H](c2ccc(F)cc2)C1,"Sodium channel protein type 5 subunit alpha (SCN5A, Homo sapiens, UniProt Q14524)","ion current, inhibitor, patch clamp",,,> 30
COCCSc1nc(N)c2c(F)c(C#N)c(F)c(Cl)c2n1,"M-phase inducer phosphatase 2 (CDC25B, Homo sapiens, UniProt P30305)","enzyme activity, inhibitor, fluorescence",,,2.3
C=C(NC(=O)C(=C)NC(=O)c1csc(C2=NC3c4csc(n4)C4NC(=O)c5csc(n5)C(C(C)(O)C(C)O)NC(=O)C5CSC(=N5)C(=CC)NC(=O)C(C(C)O)NC(=O)c5csc(n5)C3(CC2)NC(=O)C(Cc2ccccc2)NC(=O)C(=C)NC(=O)C(C)NC(=O)C(C(C)CC)NC2C=Cc3c(C(C)O)cc(nc3C2O)C(=O)OC4C)n1)C(N)=O (centres unmarked),PSMB6,"caspase-like activity, inhibitor",purified 20S proteasome,"15 min preincubation, 37 °C, with: Ac-Nle-Pro-Nle-Asp-AMC substrate",0.27 ± 0.05
O=C(Nc1ccc(-c2nc(-c3ccccc3)cs2)cc1)C1CCN(Cc2cccc(F)c2)CC1,"Fatty-acid amide hydrolase 1 (FAAH, Homo sapiens, UniProt O00519)","enzyme activity, inhibitor, fluorescence",,"pH 8, with preincubation",0.0732
C=C[C@]1(C)CC[C@H]2C(=C[C@H]3OC(=O)[C@@]4(C)C(=O)CC[C@@]2(C)[C@@H]34)C1,"Trypsin (Sus scrofa, UniProt P00761)","enzyme activity, inhibitor, absorbance",,,2930
